Measured values pooled from the literature.
Parts stem from different laboratories: compare values within a part only. Changes are numbered by the printed parent chain.

Series 1
Target: Interferon regulatory factor 5, full length, phosphomimetic (IRF5, Homo sapiens, UniProt Q13568-2, residues 1-514, K96S/S451D/S453D/S456D/S462D)
Technique: protein-binding microarray
Molecule type: double-stranded DNA, one strand shown
Medium: in vitro
Tested at: 250 nM
Setting: 60-bp whole probe
Added: salmon DNA 0.4 mg/ml
Reference: random background probes
Direction: higher = stronger binding
Endpoint: log fluorescence
All sequences stand within: GCCTAGCAC … GTCTTGATTCGCTTGACGCTGCTG
TTAGGAATCCTTATCCTTTAGTGCTAG: -0.0103 z-score
ACAAGTTTCTCCTTTCGGAAGTGCTAG: 5.48 z-score
TTAGGTATCGGACTGGGTTGGTGCTAG: 1.49 z-score
TTAGATTTCTGTCTCGATTAGTGCTAG: 2.95 z-score
TTAGATCTCAGTCTGGATTAGTGCTAG: -0.0745 z-score
GGATGAGTCACTTCTGGTGCTGTGCTA: -0.0707 z-score
GACGGTTTCGGTGCCGGGACGTGCTAG: 8.08 z-score
TTAGGTTTCGTCTATCGGTTAGTGCTA: 7.83 z-score
GACGGTCTCGGTATCGGGAGGTGCTAG: 1.15 z-score
GACGGTATCCTTCTCCTAACGTGCTAG: 0.295 z-score
TTAGGACTGGGTCGCGGTTAGTGCTAG: -0.421 z-score
TTACAGATGTTTTTCATTTTGTGCTAG: 1.66 z-score
CACGGTATCGACACTGGGGACGTGCTA: 1.41 z-score
GACGGTTTCGACTATCGGGAGGTGCTA: 7.21 z-score
TTAGGTCTCCTACTGCCTTAGTGCTAG: -0.252 z-score
TACGGTATCGGTCTCGGGACGTGCTAG: 5.21 z-score
ATAGGTATCGGGTTTCGGTTAGTGCTA: 8.9 z-score
TTAGGTTTCGGGTTTCTGTTAGTGCTA: 8.71 z-score
TTAGTTATCCTTCTCCTTTAGTGCTAG: 0.486 z-score
TCACGGCTCTAAACTCATACTGTGCTA: -0.0997 z-score
TCACTTCTGGATTTTTTACTGTGCTAG: 0.777 z-score
TTAGGACTGGGTTTCGGTTCGTGCTAG: 6.95 z-score
TGAGATATCGGGTATCGATTAGTGCTA: 5.25 z-score
GACGATTTCGGGTATCGAGAGGTGCTA: 4.92 z-score
TCAAGCTTCTTTTTTATACTGTGCTAG: 0.467 z-score

Series 2
Target: Sal-like protein 4, full length isoform A (SALL4, Homo sapiens, UniProt Q9UJQ4, residues 1-1053)
Chain of UniProt Q9UJQ4 (whole entry, looked up): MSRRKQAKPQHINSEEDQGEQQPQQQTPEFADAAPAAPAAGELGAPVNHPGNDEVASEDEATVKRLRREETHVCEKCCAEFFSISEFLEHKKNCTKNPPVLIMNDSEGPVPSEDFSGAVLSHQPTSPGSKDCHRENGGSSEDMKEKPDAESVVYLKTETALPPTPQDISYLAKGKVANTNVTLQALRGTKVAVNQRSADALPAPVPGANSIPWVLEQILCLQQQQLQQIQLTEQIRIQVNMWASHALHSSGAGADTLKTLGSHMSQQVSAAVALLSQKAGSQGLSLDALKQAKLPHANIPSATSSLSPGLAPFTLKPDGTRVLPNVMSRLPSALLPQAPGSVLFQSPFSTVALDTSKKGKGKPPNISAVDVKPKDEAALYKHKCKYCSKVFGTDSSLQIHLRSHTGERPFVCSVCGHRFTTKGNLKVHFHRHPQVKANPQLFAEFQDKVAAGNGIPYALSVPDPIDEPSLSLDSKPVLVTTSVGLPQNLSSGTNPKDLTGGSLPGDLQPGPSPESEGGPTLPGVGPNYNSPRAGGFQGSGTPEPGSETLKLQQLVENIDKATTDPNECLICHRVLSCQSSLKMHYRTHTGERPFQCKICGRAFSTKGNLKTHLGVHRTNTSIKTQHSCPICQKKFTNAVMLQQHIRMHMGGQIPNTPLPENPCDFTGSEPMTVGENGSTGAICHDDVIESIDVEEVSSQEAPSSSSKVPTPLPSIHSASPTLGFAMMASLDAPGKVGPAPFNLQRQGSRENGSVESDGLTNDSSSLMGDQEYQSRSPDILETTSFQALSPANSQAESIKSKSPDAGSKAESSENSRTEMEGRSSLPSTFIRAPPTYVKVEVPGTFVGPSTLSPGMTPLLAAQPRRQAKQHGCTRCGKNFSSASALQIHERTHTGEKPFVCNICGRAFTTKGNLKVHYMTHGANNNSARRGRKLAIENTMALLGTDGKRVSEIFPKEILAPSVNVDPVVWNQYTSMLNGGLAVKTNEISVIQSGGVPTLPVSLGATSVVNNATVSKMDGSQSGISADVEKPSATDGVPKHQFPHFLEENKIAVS
Technique: universal PBM
Molecule type: double-stranded DNA, one strand shown
Medium: in vitro
Tested at: 600 nM
Setting: 8-mer, flanks averaged, mean of replicates
Direction: higher = stronger binding
Endpoint: E-score
ACGCTCGG: -0.187
GTGCAACA: -0.0783
CCACCCTA: -0.129
ATAGTGCC: -0.0746
CCCATGCG: -0.26
AGGCTCCA: -0.215
GCAGGGCA: -0.184
CTATTCAG: 0.123
GAGACGAC: -0.168
TGCCATAA: 0.218
ATGGCACA: -0.0121
CCTCTAGA: -0.0087
CGGCGTAA: -0.0122
CTGATAGC: 0.00313
ACATTGCC: -0.0379
CCCGCTTC: -0.313
GGTATCCA: -0.116
CCGATAGG: 0.00117
TAAGCACA: 0.0412
GTCGCAAA: 0.0502

Series 3
Target: Histone acetyltransferase KAT6A, winged helix 1, GST fusion (KAT6A, Homo sapiens, UniProt Q92794, residues 1-85)
Technique: protein binding microarray
Molecule type: double-stranded DNA, one strand shown
Medium: in vitro
Tested at: not given
Setting: 8-mer, flanks averaged, mean of 2 arrays, mostly near background
Reference: not given
Direction: higher = stronger binding
Endpoint: E-score
Construct (chain): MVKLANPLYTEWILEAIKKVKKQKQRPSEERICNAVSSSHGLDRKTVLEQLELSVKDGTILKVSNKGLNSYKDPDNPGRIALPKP
ACATATAT: -0.0731
GGGGATAA: -0.087
ACACCGTA: 0.307
TAAATGTA: -0.0968
ATGTCCAG: -0.0238
AGTGTAAT: -0.114
ATTATTCC: 0.00786
AGTACGGG: 0.262
AAATTTAC: -0.162
CACGGTCC: 0.0853
GAGAGCGA: 0.0227
GACGTATC: 0.0584
AACAAGTG: -0.111
GCGAGAAA: -0.0636
CTGGTAAA: -0.129
GGCTAAAA: 0.0905
GGGTATTA: 0.0828
ATGCTGTG: -0.176
AGATTCGA: -0.242
ACCACACG: -0.0488
CTTTAAAC: -0.15
GGTACACA: 0.149

Series 4
Target: RNA binding protein fox-1 homolog 2, RRM domain, GST-SBP tag (RBFOX2, Homo sapiens, UniProt O43251-10, residues 100-194)
Technique: RNA Bind-n-Seq
Molecule type: RNA
Medium: in vitro
Tested at: 365 nM
Setting: natural RNA segment, single round, ends assumed
Reference: no-protein control
Direction: higher = stronger binding
Endpoint: RBNS enrichment (R)
All sequences stand within: GGGAGUUCUACAGUCCGACGAUC … UGGAAUUCUCGGGUGCCAA
Residues (chain): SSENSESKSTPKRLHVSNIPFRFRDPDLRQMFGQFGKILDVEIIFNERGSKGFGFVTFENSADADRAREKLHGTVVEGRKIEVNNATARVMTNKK
UCCCACCCAAGGAGAACGUUUGGUACAAUCGACAUCCUAGCCCCACCCAGAGGUGGCCCUCCCAGGCUGGUAUUUAUCUGCAAGGUUGUAGUCAAGAGGUUUUUCUCCCC: 0.372
UAAUUAAUGGAUCAUCAGCUUGACCUCUGUAAAGUGGCAUCUUAAAACUUUUACAGAUUUUUGCACAAAAAGUGGACAUUUAUUUUUCCUGUUUUUAAAACAGUUUUUCA: 1.1
UUCUGGAGAGGUUAUUUCUGCAUGGAAACUCAACUUCUUGGAUUAGCUAUCUUGAGUGAAAGUCCUCACUGACGAGUAUGCAAACCAAAUAGCCUCCUGCACAGUAGCCU: 0.597
CAAACAAAAUUUAAGGCGUUUAUCCACAAGUUCUUGACUCGGGUACAGUGCGUUCCUGAGACACCCUCUUUGGGAGCACAGGCAGUUAGCUGGAAGAACUCCAAGGAAAA: 0.264
CGCUGUGCUCAGAUGCUGACGAGACUCCUUUGCUAGACUCCCCUAGUUAGGGCCUCUGCAGCUUAUGGUGGCUUAAAAUGGAGAGAGCAUCUUGCCUGGCCGAGUGUUUG: 0.929
GAAAAUUGUAACCAAAUUCAUACUUUGUAUAAUUUUUGAUAUCAUGAUCACAGGUGAUUCACACGUACACACAUAAACACACCCACCAGUGCAGCCUGAAGUAACUCCCA: 0.357
CAUUGUUAUUCAUUUUGUAAAAUACUAGUCUUUAUUUUCAUUUUUUGUAAAAUUUAAACAUCGUAUGCGCAUAAAGAAAAAGGAAACAAGAAUUAGGGGAAAAUAACAUU: 0.725
AAGGCCAAAUCAAAACCCCGGAAGCGGUUAGAAGAAAGCCAAGGAGGCCCCAAGCCAGGGGCAGUGAGGUCAUCUAGCAGUGACAGGAUCCCAUCAGGCUCCUUGGAAAG: 0.199
CCGUGAAUUCUCGGAAUGGCAGGGGAAGCCUUGCACUAGGUUGCAGAGAAGCAUCCUCCACAUCCUGUGUCAGAAACCCUGGUCUCCGUGGCACUUGUAACUCACCGUGC: 0.44
CUGAAGAUUGUUUAUCUUAUCUAGAUGUAAAUUUUUAUUAAAAAGUUGCACUUAUGAAAAAGCAAAAUACUAGUCUGACAGAUGUUUGCUCCGGUUUUAAAUUUCGACAC: 0.512
AUGUAAAGUUUAUUUUUAAGAAUCCAAUAGUGAUUUGUAUACUUGUUUUUUUUUCAUUUUAAACCAAAUGCAUGUAUAAUCAUGUUGGAAUAUGUUAAGAUCUAUGGAUA: 1.59
GAGAAAGCAUGUCAGGACAGAGCUGUUGGAUUGGCUUUGAUAGAGGAAUGGGGAUGAUGUAAGUUUACAGUAUUCCUGGGGUUUAAUUGUUGUGCAGUUUCAUAGAUGGG: 6.46

Series 5
Target: ABI1, truncated, D143A, DHFR fusion (Arabidopsis thaliana)
Technique: DHFR PCA, deep sequencing
Medium: yeast
Setting: methotrexate growth selection, single substitutions
Added: (+)-ABA 4.8 µM
Reference: wild-type fitted maximum
Direction: higher = stronger binding
Endpoint: relative binding score
Starting sequence: PYL1, truncated, DHFR fusion (Arabidopsis thaliana); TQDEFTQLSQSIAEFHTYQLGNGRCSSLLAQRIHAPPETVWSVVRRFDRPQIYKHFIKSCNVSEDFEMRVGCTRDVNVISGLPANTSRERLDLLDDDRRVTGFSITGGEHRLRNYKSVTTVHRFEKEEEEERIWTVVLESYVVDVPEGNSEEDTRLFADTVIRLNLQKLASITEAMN; partner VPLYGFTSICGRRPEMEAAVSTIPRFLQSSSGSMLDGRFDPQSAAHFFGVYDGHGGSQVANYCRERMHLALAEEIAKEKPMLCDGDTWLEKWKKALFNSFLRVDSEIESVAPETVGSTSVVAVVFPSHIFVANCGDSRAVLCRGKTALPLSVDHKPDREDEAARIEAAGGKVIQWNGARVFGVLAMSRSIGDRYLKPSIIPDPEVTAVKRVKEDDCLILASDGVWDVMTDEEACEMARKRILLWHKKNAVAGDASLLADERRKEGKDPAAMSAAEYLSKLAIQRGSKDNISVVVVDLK
Y115E: -19.7%
T1P: 73.9%
P37L: 25.6%
K126N: 86.8%
E64W: 45.6%
S42C: 41.2%
H16L: 3.75%
R111P: 2.02%
H55V: 96.1%
V145Q: -5.49%
L93W: 22.9%
K168V: 38.8%
I52Q: 67.3%
S9C: 53.3%
L91F: 3%
E151K: 73.8%
Q7D: 75.9%
T173N: -1.25%
I79Q: 53.7%
R163A: 31.4%
S80P: 1.73%
S117V: -9.73%
A175S: 77.6%
D96F: -9.57%
V44D: -13.8%

Some of these lines once more (series 3):
GGCTAAAA: 0.0905
GGGTATTA: 0.0828
AGATTCGA: -0.242
GGGGATAA: -0.087
AAATTTAC: -0.162
AGTACGGG: 0.262
GCGAGAAA: -0.0636
GGTACACA: 0.149
AGTGTAAT: -0.114
ACCACACG: -0.0488
GAGAGCGA: 0.0227
TAAATGTA: -0.0968
ACATATAT: -0.0731
ATGCTGTG: -0.176
AACAAGTG: -0.111
CACGGTCC: 0.0853
